Experimental data gathered from unrelated publications.
Every numbered part comes from another study and shows a few of its results, in no order.
Sequence of UniProt Q9UL54 (whole entry, looked up): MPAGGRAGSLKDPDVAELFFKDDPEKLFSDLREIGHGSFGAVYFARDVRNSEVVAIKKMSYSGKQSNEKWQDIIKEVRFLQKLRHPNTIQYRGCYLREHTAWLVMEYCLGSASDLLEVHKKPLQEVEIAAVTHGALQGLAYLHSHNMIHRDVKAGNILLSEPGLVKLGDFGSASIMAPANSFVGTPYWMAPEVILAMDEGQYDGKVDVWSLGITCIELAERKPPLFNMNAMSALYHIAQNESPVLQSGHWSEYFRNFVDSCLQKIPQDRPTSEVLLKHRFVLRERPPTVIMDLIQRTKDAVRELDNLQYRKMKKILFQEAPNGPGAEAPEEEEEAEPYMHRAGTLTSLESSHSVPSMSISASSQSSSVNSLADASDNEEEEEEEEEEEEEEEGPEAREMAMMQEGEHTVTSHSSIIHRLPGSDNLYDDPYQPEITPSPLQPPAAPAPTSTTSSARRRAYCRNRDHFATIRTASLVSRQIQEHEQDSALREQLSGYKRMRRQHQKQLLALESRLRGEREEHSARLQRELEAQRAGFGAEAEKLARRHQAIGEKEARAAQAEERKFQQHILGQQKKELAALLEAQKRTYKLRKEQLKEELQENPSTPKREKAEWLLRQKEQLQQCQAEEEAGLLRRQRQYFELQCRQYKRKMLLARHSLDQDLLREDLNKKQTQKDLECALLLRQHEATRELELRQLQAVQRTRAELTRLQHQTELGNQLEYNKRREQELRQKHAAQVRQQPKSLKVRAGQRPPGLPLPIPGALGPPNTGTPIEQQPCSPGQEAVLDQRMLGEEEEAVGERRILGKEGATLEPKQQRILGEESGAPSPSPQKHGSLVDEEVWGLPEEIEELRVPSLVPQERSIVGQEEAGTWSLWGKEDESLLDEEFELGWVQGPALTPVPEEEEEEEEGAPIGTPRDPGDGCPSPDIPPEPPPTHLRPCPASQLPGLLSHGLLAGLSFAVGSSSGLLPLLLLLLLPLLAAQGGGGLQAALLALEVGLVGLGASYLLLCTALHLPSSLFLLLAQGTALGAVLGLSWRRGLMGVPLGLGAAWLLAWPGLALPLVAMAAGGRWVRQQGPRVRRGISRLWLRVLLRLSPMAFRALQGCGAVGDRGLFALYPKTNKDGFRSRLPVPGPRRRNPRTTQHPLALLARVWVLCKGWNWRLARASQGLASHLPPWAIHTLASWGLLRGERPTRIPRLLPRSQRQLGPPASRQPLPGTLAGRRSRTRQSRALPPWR
Sequence of UniProt P07949 (whole entry, unmodified, looked up): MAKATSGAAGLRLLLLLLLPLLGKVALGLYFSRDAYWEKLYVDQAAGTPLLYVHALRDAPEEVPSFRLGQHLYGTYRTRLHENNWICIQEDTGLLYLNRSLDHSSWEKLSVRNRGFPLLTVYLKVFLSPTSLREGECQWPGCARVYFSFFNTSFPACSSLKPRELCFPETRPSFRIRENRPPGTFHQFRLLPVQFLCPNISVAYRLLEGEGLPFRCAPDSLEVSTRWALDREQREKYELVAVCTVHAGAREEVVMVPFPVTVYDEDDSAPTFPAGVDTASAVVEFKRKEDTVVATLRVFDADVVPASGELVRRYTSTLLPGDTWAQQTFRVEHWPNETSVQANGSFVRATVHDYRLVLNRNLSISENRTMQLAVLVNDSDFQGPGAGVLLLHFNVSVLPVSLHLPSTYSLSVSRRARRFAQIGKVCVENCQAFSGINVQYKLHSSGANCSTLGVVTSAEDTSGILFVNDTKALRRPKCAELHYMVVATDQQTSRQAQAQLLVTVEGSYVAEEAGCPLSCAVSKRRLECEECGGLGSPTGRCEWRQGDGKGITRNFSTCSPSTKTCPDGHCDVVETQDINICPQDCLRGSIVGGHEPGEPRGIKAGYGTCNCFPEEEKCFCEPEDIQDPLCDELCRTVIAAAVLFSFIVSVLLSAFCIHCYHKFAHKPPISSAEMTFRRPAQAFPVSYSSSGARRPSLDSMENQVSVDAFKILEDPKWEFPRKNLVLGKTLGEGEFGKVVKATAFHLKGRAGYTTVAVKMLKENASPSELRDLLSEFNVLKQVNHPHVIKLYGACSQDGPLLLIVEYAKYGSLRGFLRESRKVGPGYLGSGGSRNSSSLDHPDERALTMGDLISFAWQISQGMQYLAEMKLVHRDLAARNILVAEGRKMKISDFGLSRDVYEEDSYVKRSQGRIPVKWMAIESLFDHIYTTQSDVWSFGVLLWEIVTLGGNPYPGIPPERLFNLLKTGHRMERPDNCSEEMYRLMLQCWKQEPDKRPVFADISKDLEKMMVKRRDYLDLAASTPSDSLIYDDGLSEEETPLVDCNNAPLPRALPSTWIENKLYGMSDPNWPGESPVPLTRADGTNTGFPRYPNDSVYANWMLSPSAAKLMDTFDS
Sequence of UniProt Q9Y2K2 (whole entry, looked up): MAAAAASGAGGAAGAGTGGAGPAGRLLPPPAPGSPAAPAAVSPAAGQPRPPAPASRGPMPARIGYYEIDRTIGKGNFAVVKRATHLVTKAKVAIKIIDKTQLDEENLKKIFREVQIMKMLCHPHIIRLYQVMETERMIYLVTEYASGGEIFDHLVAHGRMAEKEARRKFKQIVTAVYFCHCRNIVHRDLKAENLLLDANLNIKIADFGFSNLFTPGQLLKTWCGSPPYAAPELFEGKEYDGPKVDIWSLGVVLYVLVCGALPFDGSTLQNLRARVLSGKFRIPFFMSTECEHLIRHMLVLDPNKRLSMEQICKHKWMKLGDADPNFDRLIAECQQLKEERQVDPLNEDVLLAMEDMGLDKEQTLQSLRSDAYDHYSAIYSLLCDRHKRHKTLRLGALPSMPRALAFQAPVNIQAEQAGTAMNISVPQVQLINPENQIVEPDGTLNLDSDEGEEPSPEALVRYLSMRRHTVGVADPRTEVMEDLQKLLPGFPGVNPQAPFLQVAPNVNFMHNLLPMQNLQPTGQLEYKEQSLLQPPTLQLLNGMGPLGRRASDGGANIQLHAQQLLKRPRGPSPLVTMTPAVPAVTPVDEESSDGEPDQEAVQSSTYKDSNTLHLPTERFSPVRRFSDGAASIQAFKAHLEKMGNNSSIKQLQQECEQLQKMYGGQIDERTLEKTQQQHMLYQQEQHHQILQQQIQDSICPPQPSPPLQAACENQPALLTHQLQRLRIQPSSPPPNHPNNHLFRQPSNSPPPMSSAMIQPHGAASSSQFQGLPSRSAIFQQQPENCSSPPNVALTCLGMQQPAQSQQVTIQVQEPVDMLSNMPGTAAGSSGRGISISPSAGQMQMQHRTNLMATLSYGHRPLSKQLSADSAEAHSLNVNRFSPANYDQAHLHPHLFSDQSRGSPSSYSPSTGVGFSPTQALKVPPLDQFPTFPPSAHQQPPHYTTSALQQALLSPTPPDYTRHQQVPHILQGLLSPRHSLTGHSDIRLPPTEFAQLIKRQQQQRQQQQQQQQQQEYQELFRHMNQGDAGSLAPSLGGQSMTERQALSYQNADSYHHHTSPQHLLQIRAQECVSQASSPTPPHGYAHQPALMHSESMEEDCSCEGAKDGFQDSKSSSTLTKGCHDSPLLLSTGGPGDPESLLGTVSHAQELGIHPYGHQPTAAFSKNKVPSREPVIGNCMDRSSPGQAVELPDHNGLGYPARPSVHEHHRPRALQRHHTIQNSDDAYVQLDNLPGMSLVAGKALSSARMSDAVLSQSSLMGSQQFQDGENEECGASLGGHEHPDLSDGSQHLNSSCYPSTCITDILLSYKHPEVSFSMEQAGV
Sequence of UniProt P46734 (whole entry, looked up): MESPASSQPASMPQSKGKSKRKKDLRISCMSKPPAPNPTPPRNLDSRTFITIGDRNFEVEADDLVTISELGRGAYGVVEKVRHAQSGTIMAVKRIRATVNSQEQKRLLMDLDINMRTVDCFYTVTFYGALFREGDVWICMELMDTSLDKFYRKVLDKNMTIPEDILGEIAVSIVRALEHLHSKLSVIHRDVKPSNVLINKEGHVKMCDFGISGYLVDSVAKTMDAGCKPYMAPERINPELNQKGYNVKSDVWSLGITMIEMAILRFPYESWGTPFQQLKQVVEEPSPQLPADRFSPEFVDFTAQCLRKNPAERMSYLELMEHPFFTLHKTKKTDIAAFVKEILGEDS

Set 1
Target: Ephrin type-A receptor 5 (EPHA5, Homo sapiens, UniProt P54756)
Sequence of UniProt P54756 (whole entry, looked up): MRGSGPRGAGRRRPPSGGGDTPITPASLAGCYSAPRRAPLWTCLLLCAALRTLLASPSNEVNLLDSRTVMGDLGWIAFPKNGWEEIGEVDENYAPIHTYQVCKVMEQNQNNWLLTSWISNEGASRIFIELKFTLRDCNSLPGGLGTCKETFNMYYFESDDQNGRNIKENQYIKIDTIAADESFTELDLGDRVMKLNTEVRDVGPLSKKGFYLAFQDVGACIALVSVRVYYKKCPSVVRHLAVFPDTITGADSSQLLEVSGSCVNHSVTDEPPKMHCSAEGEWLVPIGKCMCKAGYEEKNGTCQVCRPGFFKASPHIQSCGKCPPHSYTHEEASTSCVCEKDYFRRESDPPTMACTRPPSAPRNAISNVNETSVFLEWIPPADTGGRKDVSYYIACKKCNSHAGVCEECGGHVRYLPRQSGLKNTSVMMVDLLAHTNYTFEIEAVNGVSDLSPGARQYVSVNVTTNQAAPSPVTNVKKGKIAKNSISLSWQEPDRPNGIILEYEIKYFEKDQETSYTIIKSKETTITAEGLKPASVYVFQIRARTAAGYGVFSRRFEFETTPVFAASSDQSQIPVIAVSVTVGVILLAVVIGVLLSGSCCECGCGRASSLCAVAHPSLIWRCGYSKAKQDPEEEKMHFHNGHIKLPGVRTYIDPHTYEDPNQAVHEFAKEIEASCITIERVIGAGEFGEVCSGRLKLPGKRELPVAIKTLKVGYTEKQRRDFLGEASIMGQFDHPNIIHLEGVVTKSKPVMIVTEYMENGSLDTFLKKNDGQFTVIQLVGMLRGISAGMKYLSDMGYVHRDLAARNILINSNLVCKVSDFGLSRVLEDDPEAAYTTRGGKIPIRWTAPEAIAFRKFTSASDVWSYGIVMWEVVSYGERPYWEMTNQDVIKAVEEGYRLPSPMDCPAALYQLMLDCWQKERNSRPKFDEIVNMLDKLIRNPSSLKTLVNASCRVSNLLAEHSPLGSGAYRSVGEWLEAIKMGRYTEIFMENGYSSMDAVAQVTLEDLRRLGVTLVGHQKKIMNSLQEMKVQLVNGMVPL
Observed: enzyme activity
Action: inhibitor
Concentration: 0.5 µM
Baseline: control
SMILES	remaining activity
OCC(O)CCON=C1C(c2c(O)[nH]c3ccccc23)=Nc2ccccc21 (stereo not shown)	68%
Cc1ccc(Nc2nccc(N(C)c3ccc4c(C)n(C)nc4c3)n2)cc1S(N)(=O)=O	99.7%
NCCNc1ncc(C(N)=O)c(Nc2cccc(C(F)(F)F)c2)n1	84.6%
COc1cc2ncnc(Nc3ccc(Oc4ccccc4)cc3)c2cc1OC	85.3%
COc1ccc(C(=O)Nc2sc3c(c2C(N)=O)CCCC3)cc1OC	104%
Nc1[nH]nc2nc3ccccc3nc12	90.3%
COc1ccc(CNC(=O)Nc2ncc([N+](=O)[O-])s2)cc1	117%
CNC(=O)c1cc(Oc2ccc(NC(=O)Nc3ccc(Cl)c(C(F)(F)F)c3)cc2)ccn1	99.4%
Nc1ccc2ncnc(NCCc3ccc(Oc4ccccc4)cc3)c2c1	102%
CCOC(=O)c1c(C)[nH]c(/C=C2\C(=O)Nc3ccccc32)c1C	91.9%
Cc1cccc(-c2[nH]c(C(C)(C)C)nc2-c2ccc3c(c2)OCO3)n1	95.6%
O=C(O)c1ccc2c3c1cccc3c(=O)n1c3ccccc3nc21	94.2%
O=C(CCCc1ccc(-c2ccccc2F)cc1)Nc1ccc(O)cc1	99%
O=C1NC(=O)C(c2cn(CCCn3ccnc3)c3ccccc23)=C1Nc1ccccc1	96.1%

Set 2
SMILES: CCOc1ccc(Nc2c3c(nc4ccccc24)CCC3)cc1
Organism: Leishmania donovani
Observed: parasite killing
Strain: DD8
matrix	concentration	time	inhibition [%]
intracellular amastigotes	80 µM	48 h	100
promastigotes	16.66 µM	72 h	100
intracellular amastigotes	80 µM	24 h	100

Set 3
Compound: O=C(Nc1cccnn1)N1CC(C/C=C/c2cncc(Oc3ccc(C(F)(F)F)cn3)n2)C1
Observed: cell-free assay
Technique: competition with immobilised ligand
Concentration: 1 µM
target	remaining binding
Dual specificity mitogen-activated protein kinase kinase 3 (MAP2K3, Homo sapiens, UniProt P46734)	72%
Tyrosine-protein kinase JAK2, JH1 (JAK2, Homo sapiens, UniProt O60674)	88%
Proto-oncogene tyrosine-protein kinase receptor Ret (RET, Homo sapiens, UniProt P07949, V804L)	93%
Serine/threonine-protein kinase SIK3 (SIK3, Homo sapiens, UniProt Q9Y2K2)	74%
Serine/threonine-protein kinase 26 (STK26, Homo sapiens, UniProt Q9P289)	71%
Serine/threonine-protein kinase TAO2 (TAOK2, Homo sapiens, UniProt Q9UL54)	66%

Set 4
Host: mouse
Matrix: microsomes or S9
Concentration: 2 µM
Time: 0.5 h
Compound	remaining compound [%]
CCCNC(=O)[C@H](CC(C)C)NC(=S)NCCC	47.5
Cn1nc(C2CC2)c2c(C(=O)Nc3ccc(Cn4cc(Cl)cn4)cc3)cc(C3CC3)nc21	86.3
CC(C)Cn1ccnc1NC(=O)c1cnc(C(C)(C)C)s1	25.3
COc1cc(=O)[nH]cc1C(=O)N1CCCCC1c1ccccc1 (stereo not shown)	84
CC1(C)CC(=O)C(C(Cc2ccccc2)C2=C(O)CC(C)(C)CC2=O)=C(O)C1	< 1

For quick reference, copied from above (set 3):
target	remaining binding
Proto-oncogene tyrosine-protein kinase receptor Ret (RET, Homo sapiens, UniProt P07949, V804L)	93%
Dual specificity mitogen-activated protein kinase kinase 3 (MAP2K3, Homo sapiens, UniProt P46734)	72%
Serine/threonine-protein kinase TAO2 (TAOK2, Homo sapiens, UniProt Q9UL54)	66%
Serine/threonine-protein kinase 26 (STK26, Homo sapiens, UniProt Q9P289)	71%
Tyrosine-protein kinase JAK2, JH1 (JAK2, Homo sapiens, UniProt O60674)	88%
